Experimental data collected from several papers.
Parts stem from different laboratories: compare values within a part only.

Set 1
Target: Sal-like protein 4, full length isoform A (SALL4, Homo sapiens, UniProt Q9UJQ4, residues 1-1053)
Sequence of UniProt Q9UJQ4 (whole entry, looked up): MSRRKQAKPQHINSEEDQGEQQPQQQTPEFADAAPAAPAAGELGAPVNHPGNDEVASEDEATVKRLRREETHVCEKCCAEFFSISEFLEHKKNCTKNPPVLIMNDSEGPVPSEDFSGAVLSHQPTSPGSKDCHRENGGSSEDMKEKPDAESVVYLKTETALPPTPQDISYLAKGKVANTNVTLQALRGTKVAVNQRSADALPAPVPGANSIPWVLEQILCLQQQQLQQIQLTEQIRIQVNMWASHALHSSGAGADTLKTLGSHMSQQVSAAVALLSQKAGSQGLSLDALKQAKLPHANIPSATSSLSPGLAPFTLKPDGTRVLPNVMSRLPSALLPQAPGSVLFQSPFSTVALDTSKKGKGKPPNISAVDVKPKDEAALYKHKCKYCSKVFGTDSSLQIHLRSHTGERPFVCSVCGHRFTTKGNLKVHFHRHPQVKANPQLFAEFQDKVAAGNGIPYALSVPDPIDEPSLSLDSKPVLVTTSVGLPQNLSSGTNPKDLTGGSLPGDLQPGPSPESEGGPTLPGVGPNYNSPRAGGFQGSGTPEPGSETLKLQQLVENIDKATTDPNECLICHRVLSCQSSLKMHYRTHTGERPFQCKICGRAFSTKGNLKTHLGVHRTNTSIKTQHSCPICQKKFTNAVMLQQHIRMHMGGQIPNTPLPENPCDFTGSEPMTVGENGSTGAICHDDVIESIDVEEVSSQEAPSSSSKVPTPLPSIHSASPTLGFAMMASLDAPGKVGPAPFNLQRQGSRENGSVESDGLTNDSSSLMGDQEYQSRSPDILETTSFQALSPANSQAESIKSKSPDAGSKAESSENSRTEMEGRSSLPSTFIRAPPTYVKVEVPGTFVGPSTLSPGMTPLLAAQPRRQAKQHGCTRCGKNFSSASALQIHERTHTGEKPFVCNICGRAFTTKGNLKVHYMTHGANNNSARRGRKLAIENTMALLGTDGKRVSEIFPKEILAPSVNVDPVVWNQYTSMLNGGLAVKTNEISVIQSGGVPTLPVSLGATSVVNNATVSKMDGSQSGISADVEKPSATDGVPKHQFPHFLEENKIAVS
Technique: universal PBM
Molecule type: double-stranded DNA, one strand shown
Sample: in vitro
Concentration: 600 nM
Setting: 8-mer, flanks averaged, mean of replicates
Reading: higher = stronger binding
Quantity: E-score
CTCGAGCA: -0.0693
ACGATTGG: 0.138
GAGCACTA: 0.00451
AAACTGAT: 0.0956
GGATATCA: 0.0867

Set 2
Target: Phosphate system positive regulatory protein PHO4, full length, GST-tagged (PHO4, Saccharomyces cerevisiae, UniProt P07270, residues 1-312)
Technique: competition protein-binding microarray
Molecule type: double-stranded DNA, one strand shown
Sample: in vitro
Concentration: 2 µM
Setting: whole 60-bp probe, lowest competitor level
Together with: Cbf1 competitor, 0.05 µM
Reading: higher = stronger binding
Quantity: fluorescence intensity
Shared flanks, not repeated: … GTCTTGATTCGCTTGACGCTGCTG
Construct (chain): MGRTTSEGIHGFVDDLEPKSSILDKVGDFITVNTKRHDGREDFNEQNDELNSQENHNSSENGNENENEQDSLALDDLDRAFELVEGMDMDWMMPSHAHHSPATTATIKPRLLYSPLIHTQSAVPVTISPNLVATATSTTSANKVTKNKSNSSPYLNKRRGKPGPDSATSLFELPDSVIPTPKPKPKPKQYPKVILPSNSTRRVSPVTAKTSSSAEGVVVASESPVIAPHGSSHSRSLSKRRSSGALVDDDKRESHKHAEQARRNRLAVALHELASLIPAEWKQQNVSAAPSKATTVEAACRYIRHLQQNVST
CTTCTGTAAATTTGTCATGTGGGTGGACGCGCCCCG: 8670 a.u.
TGCGCAACAACTTGTCACCGCACTTTATGTCTAGAA: 3820 a.u.
GTTAATGATATGTTTCACGTGGTGAGATTTTTTTTG: 13700 a.u.
CGTCCTAGTGATTTTCACGTGCTATCCATGAGGAAG: 15600 a.u.
ATACTCACAATAATACATGTGTCTTAGAACCTCAGT: 8750 a.u.

Set 3
Target: Histone acetyltransferase KAT6A, winged helix 1, GST fusion (KAT6A, Homo sapiens, UniProt Q92794, residues 1-85)
Technique: protein binding microarray
Molecule type: double-stranded DNA, one strand shown
Sample: in vitro
Concentration: not given
Setting: 8-mer, flanks averaged, mean of 2 arrays, mostly near background
Relative to: not given
Reading: higher = stronger binding
Quantity: E-score
Target sequence (chain): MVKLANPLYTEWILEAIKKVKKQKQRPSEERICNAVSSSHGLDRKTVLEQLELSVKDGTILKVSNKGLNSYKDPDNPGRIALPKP
AGGCCACG: 0.0968
GGGACCCA: -0.0174
AGGCTAGG: -0.143
CATGTTAA: -0.0384
ACCTTTTC: -0.159

Other studies, line by line
PhoQ, residues 284 288 289 292 302 303 AAQSYM
fold induction (PhoP, residues 12 14 15 18 19 NIMAP (Escherichia coli, UniProt P23836); Sort-seq, refers to: YFP reporter; E. coli; PhoQ-PhoP variant library, together with: 10 µM Mg2+; relative to: high Mg2+ state, higher = stronger signaling): 0.623

For quick reference, copied from above (set 1):
AAACTGAT: 0.0956
ACGATTGG: 0.138
